Assay results pooled from the literature.
Lines come from different studies, so protocols differ. ± marks the error that the study gave.
Tspo: Translocator protein (Tspo, Rattus norvegicus, UniProt P16257)
VHL with Elongin B/C: von Hippel-Lindau disease tumor suppressor, with Elongin B/C (VHL, Homo sapiens, UniProt P40337)
LGALS3: Galectin-3 (LGALS3, Homo sapiens, UniProt P17931)

Structure (SMILES) | target | test | system | setting | scale | endpoint | result
CCc1cc(C)n2nc(-c3ccc(OCC[18F])cc3)c(CC(=O)N(CC)CC)c2n1 | Tspo | two-tissue compartment model | rat C6 glioma model, tumor | 60 min dynamic PET | – | K1 influx rate constant | 6.39 ± 1.1 mL/cm3/min
CC(C)n1ccc2c(N3CCN(CCCCOc4ccc5c(c4)NC(=O)CC5)CC3)cccc21 | DRD2 (Homo sapiens, UniProt P14416) | Gi/o signalling, agonist | human cells | concentration not given | reference: quinpirole | activity | inactive
N#Cc1cnc(Nc2nc3ccccc3o2)nc1-c1ccccc1Cl | Grm5 (Rattus norvegicus, UniProt P31424) | calcium mobilization, negative allosteric modulator | – | together with: glutamate EC80 | reference: maximal glutamate response | maximal response | 2.2 ± 0.5%
CN(C(=O)Cn1c(=O)oc2ccc(-c3ccc(OCC[18F])cc3)cc21)c1ccccc1 | Tspo | PET | Sprague-Dawley rat focal ischemia, striatum | 60 min | reference: ipsilateral over contralateral | maximum radioactivity ratio | 3.2 ± 0.12
COc1ccc(CCC(=O)Nc2nc3ccc(Cl)cc3s2)cc1OC | Squalene synthase (Homo sapiens, UniProt P37268) | degrader, Western blot, item: protein level | HeLa | 18 h | – | Dmax | 68%
CCOCCNC(=O)N1CCC[C@H](c2n[nH]c(-c3ccccc3)n2)C1 | Aromatase (CYP19A1, Homo sapiens, UniProt P11511) | enzyme activity, inhibitor, MFC to HFC conversion | – | 5 µM, together with: MFC substrate | – | apparent Vmax | 0.68 pmol HFC/min/pmol P450
NC(=O)C1CCNC(=O)C(CCCNC(=O)c2cnccn2)NC(=O)C(CC2CCCCC2)NC(=O)C(CC2CC2)NC(=O)C=CC(=O)N1 (stereo not shown) | ERBB4 (Homo sapiens, UniProt Q15303) | DNA-templated library selection | – | one selection round | – | enrichment factor | 1.2
COc1cc2c(cc1OC)C(c1ccc(F)cc1F)N(CCCOc1ccc(CCC(=O)O)cc1)CC2 (stereo not shown) | PPARD (Homo sapiens, UniProt Q03181) | agonist, Gal4-LBD luciferase reporter | – | 1 nM to 10 µM | reference: GW501516 | transactivation | no effect
O=P(O)(O)O[C@@H]1[C@@H](O)[C@H](O)[C@H](O)[C@H](O)[C@H]1OP(=O)(O)O | Itpr1 (Rattus norvegicus, UniProt P29994, del318-332/R568Q) | Ca2+ release | DT40, permeabilized | – | reference: R568Q over wild type | fold loss of potency | 1.6 fold
CC(C)C[C@H](NC(=O)[C@H](Cc1ccc(O)cc1)NC(=O)[C@@H](CCCNC(=N)N)NC(=O)[C@@H](CO)NC(=O)[C@H](Cc1ccccc1)NC(=O)[C@H](CC1CCCCC1)NC(=O)[C@H](CC(=O)O)NC(=O)CCC(C(=O)O)N1CCCN2CCN(CCCN(CC(=O)O)CC2)CC1)C(=O)N[C@@H](Cc1c[nH]c2ccccc12)C(=O)N[C@@H](CO)C(=O)O (stereo partly shown) | Urokinase plasminogen activator surface receptor (Homo sapiens, UniProt Q03405) | binding, SPR | – | – | – | koff | 0.0108 s⁻¹
Nc1ncnc2c1ncn2C1OC(COP(=O)(O)OP(=O)(O)OCC2OC(O)C(O)C2O)C(O)C1O (stereo not shown) | TRPM2 (Nematostella vectensis, UniProt A7T1N0, T307A) | channel activation, agonist, inside-out patch clamp | – | T307A, 2.5 µM PIP2, together with: 125 µM Ca2+ | reference: wild type | EC50 fold increase | ~20 fold
C=C1C(=O)O[C@@H]2[C@H]3C(CO)=CC(=O)C3=C(C)C[C@H](O)[C@@H]12 | MAL12 (Saccharomyces cerevisiae S288c, UniProt P53341) | FT-IR | – | 65.22 µM | – | amide I band position | 1640 cm⁻¹
CCCN(CC(=O)N(CCC)CC(=O)N(CCC)CC(=O)N(CCC)CC(=O)N(CCC)CC(=O)N(CCC)CC(=O)N(CCC)CC(=O)N(CCC)CC(=O)N(CCC)CC(=O)N(CCC)CC(=O)N(CCC)CC(=O)N(CCC)CC(=O)N(CC(N)=O)Cc1cn(CCCNC(=O)CCCOc2cccc(-c3nc4ccc(-c5nc6ccc(N7CCN(C)CC7)cc6[nH]5)cc4[nH]3)c2)nn1)C(=O)CNCc1cn(CCCNC(=O)CCCOc2cccc(-c3nc4ccc(-c5nc6ccc(N7CCN(C)CC7)cc6[nH]5)cc4[nH]3)c2)nn1 | MBNL1–r(CUG)109 complex | MBNL1 displacement | 0.65 pmol r(CUG)109 | unit not given, together with: yeast tRNA 3.7 µM | reference: monomer 2 IC50 per module | multivalent effect | < 1.8
[123I]c1ccc2nc(-c3ccc(-n4ccnn4)nc3)cn2c1 | Amyloid-beta precursor protein, amyloid-beta (APP, Homo sapiens, UniProt P05067) | SPECT | Alzheimer's disease patients, Parietal cortex | 150 to 240 min | reference: cerebellum | SUVR | 1.23 ± 0.26
CCCCCCCCCSc1nc2c([nH]1)c(=S)n(C)c(=O)n2C | Androgen receptor (AR, Homo sapiens, UniProt P10275) | reporter gene, antagonist, PSA-luciferase | HeLa-A6 | 10 µM, 24 h, together with: 5 nM dihydrotestosterone | reference: maximal activity | remaining activity | 71%
Cc1ncsc1-c1ccc(CNC(=O)[C@@H]2C[C@@H](O)CN2C(=O)[C@@H](NC(=O)COCC(C)(COCCOCCOCCNC(=O)C[C@@H]2N=C(c3ccc(Cl)cc3)c3c(sc(C)c3C)-n3c(C)nnc32)COCCOCCOCCNC(=O)C[C@@H]2N=C(c3ccc(Cl)cc3)c3c(sc(C)c3C)-n3c(C)nnc32)C(C)(C)C)cc1 | VHL with Elongin B/C | binding to VCB, SPR | – | – | – | % Rmax | 52%
CC[C@H](C)[C@H](NC(=O)[C@@H]1CCCN1C(=O)[C@H](CCCCN)NC(=O)[C@H](CO)NC(=O)[C@H](CO)NC(=O)[C@H](Cc1ccc(O)cc1)NC(=O)[C@H](CO)NC(=O)[C@H](C)NC(=O)[C@H](CO)NC(=O)[C@@H](N)Cc1ccccc1)C(=O)N[C@@H](CCC(N)=O)C(=O)N[C@H](C(=O)N[C@@H](CCC(N)=O)C(=O)N[C@H](C(=O)N[C@@H](CO)C(=O)N[C@@H](CC(N)=O)C(=O)NCC(=O)N[C@@H](CCSC)C(=O)N[C@@H](CC(=O)O)C(=O)N[C@@H](CC(N)=O)C(=O)N[C@@H](C)C(=O)N[C@@H](CO)C(=O)N[C@@H](C)C(=O)N1CCC[C@H]1C(=O)N[C@H](C(=O)O)C(C)C)C(C)C)[C@@H](C)O | Peptide cyclase 1 (Gypsophila vaccaria, UniProt R4P353, S562A) | ITC | – | pH 8.0, 25 °C | – | –TΔS | 2.03 kcal/mol
CC(=O)N[C@@H](CC(C)C)C(=O)N[C@@H](Cc1c[nH]cn1)C(=O)N[C@@H](CO)C(=O)N[C@H](C(=O)N[C@@H](C)C(N)=O)[C@@H](C)OP(=O)(O)O | Plk2 polo-box domain, human | isothermal titration calorimetry | – | concentration not given | – | binding | no binding
CCc1nc2cc3ccccc3cc2cc1C(=O)N1CCC[C@H]1C(=O)N[C@@H](CCC/C=C\CCC[C@H](NC(=O)[C@@H]1CCCN1C(=O)c1cc2cc3ccccc3cc2nc1CC)C(=O)N[C@@H](CCCCN)C(=O)NCCCN)C(=O)N[C@@H](CCCCN)C(=O)NCCCN | (CUG)10 RNA | SPR | – | – | – | residence time | 193 s

Structure (SMILES) | target | test | system | setting | scale | endpoint | result
COc1c(F)c(F)c(C(=O)N[C@H]2[C@@H](O)[C@@H](CO)O[C@@H](S[C@@H]3O[C@H](CO)[C@H](O)[C@H](NC(=O)c4c(F)c(F)c(OC)c(F)c4F)[C@H]3OS(=O)(=O)O)[C@@H]2O)c(F)c1F | LGALS3 | ITC | – | concentration not given, all parameters fitted | – | binding stoichiometry | 1.06
[3H]C([3H])([3H])c1cnccc1CN1C[C@@H](c2cc(F)c(F)c(F)c2)CC1=O | SV2A (Homo sapiens, UniProt Q7L0J3) | radioligand binding, autoradiography | human, post-mortem temporal lobe | 5 nM | – | specific binding | 376 fmol/mg
CCNc1nc(Nc2cccc(S(=O)(=O)NC)c2)ncc1-c1ccc(F)c(OC)c1 | EPHA2 (Homo sapiens, UniProt P29317) | – | – | 10 µM | – | thermal shift | 4.3 K
Cc1cc(C)c2sc(NC(=O)C3CCN(S(=O)(=O)c4ccc(F)cc4)CC3)nc2c1 | Napepld (Mus musculus, UniProt Q8BH82) | – | – | 10 µM, together with: flame-NAPE substrate | – | Vmax | 421 RFU/min
NCCCNCCCCNCCCNCc1ccccc1 | Smox (Mus musculus, UniProt Q99K82) | enzyme activity, substrate, fluorescence | – | pH 7.5 | – | Km | 19 µM
CC(=O)N[C@H]1[C@@H](O[C@H](C)[C@H](NC(=O)[C@@H](NC(=O)CNC(=O)[C@@H](N)Cc2c[nH]cn2)C(C)C)C(=O)N[C@@H](CO)C(=O)N[C@@H](C)C(=O)N2CCC[C@H]2C(=O)N[C@@H](CC(=O)O)C(=O)N[C@H](C(=O)N[C@@H](CCCNC(=N)N)C(=O)N2CCC[C@H]2C(=O)N[C@@H](C)C(=O)N2CCC[C@H]2C(=O)NCC(=O)N[C@@H](CO)C(N)=O)[C@@H](C)O)O[C@H](CO)[C@H](O)[C@@H]1O[C@@H]1O[C@H](CO)[C@H](O)[C@H](O)[C@H]1O | LGALS3 | binding, isothermal titration calorimetry | – | full-length protein | – | –ΔH | 1.79 kcal/mol
CC(C)(O)c1ccc(N2Cc3c(ccnc3-c3ccc(F)cc3OCC(F)(F)F)C2=O)cc1 | UGCG (Homo sapiens, UniProt Q16739) | enzyme activity | – | concentration not given, together with: UDP-glucose, ceramide 7.4 µM | – | Km | 3.02 ± 0.11 µM
CC1=C(C)C(Oc2c(F)cc3c(C)cc(=O)oc3c2F)OC1=O (racemic) | D14 (Arabidopsis thaliana, UniProt Q9SQR3) | substrate, item: DiFMU release | – | – | – | kcat/K1/2 | 417 M⁻¹ s⁻¹
CCC12CCc3c(c4ccccc4n3C)CCN(CC3OC31)C2 (stereo not shown) | Triggering receptor expressed on myeloid cells 2 (Trem2, Mus musculus, UniProt Q99NH8) | cellular thermal shift | BV-2 | 25 µM, 1 h | reference: DMSO | melting temperature shift | 6.4 ± 0.7 °C
CNc1ccccc1C(=O)O[C@H]1C[C@H](n2cnc3c(N)ncnc32)O[C@@H]1COP(=O)(O)OP(=O)(O)O | Unconventional myosin-Va (Gallus gallus, UniProt Q02440, D297C/G292C/I296C/S293C/V295G) | stopped-flow FRET | – | 25 °C, together with: MgCl2 2 mM | – | pocket reverse rate constant | 5.79 ± 0.2 s⁻¹
[3H]C([3H])([3H])Nc1ccc(-c2nc3ccc(O)cc3o2)cn1 | Amyloid-beta precursor protein, Aβ40 fibrils (APP, Homo sapiens, UniProt P05067) | – | Aβ(1-40) fibrils | – | – | dissociation half-life first phase | 12 ± 2.4 s
Cc1ccc2ccc3ccc(C)nc3c2n1.Cc1ccc2ccc3ccc(C)nc3c2n1.O.[Cl-].[Cl-].[Cl-].[Yb+3] | Albumin (ALB, Bos taurus, UniProt P02769) | fluorescence quenching titration | – | concentration not given, 298 K | – | number of binding sites | 1.12
CCC(=O)N(C)c1ccc(Cl)c(Cl)c1 | AHR (Homo sapiens, UniProt P35869) | reporter gene, agonist | – | 1.0 µM | reference: vehicle | fold activation | 1.41 fold
COc1c(F)c(F)c(C(=O)N[C@H]2[C@@H](O)[C@@H](CO)O[C@@H](S[C@@H]3O[C@H](CO)[C@H](O)[C@H](NC(=O)c4c(F)c(F)c(OC)c(F)c4F)[C@H]3O)[C@@H]2O)c(F)c1F | LGALS3 | ITC | – | – | – | –TΔS | 4.3 ± 0.717 kcal/mol
COC(=O)c1ccc(CNC(=O)[C@@H]2C[C@@H](O)CN2C(=O)Cc2cc(C)no2)cc1 | VHL with Elongin B/C | isothermal titration calorimetry | – | 25 °C | – | entropic term (−TΔS) | 4.51 ± 0.22 kcal/mol
CSCC[C@H](NC=O)C(=O)N[C@@H](CC(C)C)C(=O)N[C@@H](Cc1ccccc1)C(=O)O | N-formyl peptide receptor 3 (Homo sapiens, UniProt P25089) | – | CHO-K1 | concentration not given | – | activity | inactive
CCC(C)N(C)C(=O)C(C)Cc1cc(-c2ccccc2)nc2ccccc12 (stereo not shown) | Tspo | binding | rat brain homogenate | pKi minus clogD | – | lipophilic efficiency | 2.9 ± 0.2
COc1ccc(-c2cc(C(F)(F)F)nc(S(=O)(=O)CCCC(=O)Nc3ccc(F)cc3F)n2)cc1OC | GLP1R (Homo sapiens, UniProt P43220) | affinity cooperativity, allosteric modulator | HEK-293T overexpressing GLP1R | together with: GLP-1(9-36) | – | cooperativity factor alpha | 247

A few entries again:
Structure (SMILES) | target | test | system | setting | scale | endpoint | result
Cc1cc(C)c2sc(NC(=O)C3CCN(S(=O)(=O)c4ccc(F)cc4)CC3)nc2c1 | Napepld (Mus musculus, UniProt Q8BH82) | – | – | 10 µM, together with: flame-NAPE substrate | – | Vmax | 421 RFU/min
NCCCNCCCCNCCCNCc1ccccc1 | Smox (Mus musculus, UniProt Q99K82) | enzyme activity, substrate, fluorescence | – | pH 7.5 | – | Km | 19 µM
CC(=O)N[C@H]1[C@@H](O[C@H](C)[C@H](NC(=O)[C@@H](NC(=O)CNC(=O)[C@@H](N)Cc2c[nH]cn2)C(C)C)C(=O)N[C@@H](CO)C(=O)N[C@@H](C)C(=O)N2CCC[C@H]2C(=O)N[C@@H](CC(=O)O)C(=O)N[C@H](C(=O)N[C@@H](CCCNC(=N)N)C(=O)N2CCC[C@H]2C(=O)N[C@@H](C)C(=O)N2CCC[C@H]2C(=O)NCC(=O)N[C@@H](CO)C(N)=O)[C@@H](C)O)O[C@H](CO)[C@H](O)[C@@H]1O[C@@H]1O[C@H](CO)[C@H](O)[C@H](O)[C@H]1O | LGALS3 | binding, isothermal titration calorimetry | – | full-length protein | – | –ΔH | 1.79 kcal/mol
CC(C)(O)c1ccc(N2Cc3c(ccnc3-c3ccc(F)cc3OCC(F)(F)F)C2=O)cc1 | UGCG (Homo sapiens, UniProt Q16739) | enzyme activity | – | concentration not given, together with: UDP-glucose, ceramide 7.4 µM | – | Km | 3.02 ± 0.11 µM
